Published values gathered from unrelated publications.
Protocols differ between the studies behind these lines. ± marks the error that the study gave.

For `C/C=C/c1ccc(OC(C)=O)c(OC)c1`, the EC50 was 182 µg/mL (Spodoptera frugiperda larvae; antifeedant activity, no-choice; Zea mays leaves).
With `Nc1ncnc2c1c(Br)cn2[C@@H]1O[C@H](CO)C[C@H]1O` the EC50 was 0.0005 ± 0.0001 µM (Trypanosoma congolense; parasite growth, resazurin; 6C3 diminazene-resistant; 48 h plus 24 h resazurin).
With `N#C[C@@]1(c2ccc3c(N)ncnn23)O[C@H](CO)[C@@H](O)[C@H]1O` the EC50 was 0.75 µM (human respiratory syncytial virus; viral replication; HEp-2, A2).
The EC50 of `COc1ccccc1-c1n[nH]c2nc(N[C@H]3CC[C@H](NS(=O)(=O)CC(C)C)CC3)ncc12` is reported as 0.251 µM (Leishmania donovani; mouse peritoneal macrophages, resistant clone intramacrophage amastigotes).
The EC50 of `Cc1cn(C2CC(N(C)C)C(CO)O2)c(=O)[nH]c1=O` (stereo not drawn) is reported as over 0.37 µM (coxsackievirus B4; viral replication; Vero).
For `COc1ccc(NC(=O)N2CCCN3CCC(c4ccc(C#Cc5ccccc5)cc4)C3C2)cc1` (stereo not drawn), the EC50 was 3.98 µM (Toxoplasma gondii; parasite growth, luciferase reporter; HFF, RH PheRS L497I mutant; 72 h).
For `C#Cc1cn([C@@H]2O[C@H](CO)C[C@H]2O)c2ncnc(N)c12`, the EC50 was 0.008 ± 0.002 µM (Trypanosoma congolense; parasite growth, resazurin; 6C3 diminazene-resistant; 48 h plus 24 h resazurin).
With `CN(C(=O)c1ccn2ncc(-c3ccc(C(N)=O)cc3)c2c1)c1ccc(C#N)cn1` the EC50 was 0.107 ± 0.039 µM (Cryptosporidium parvum; cytopathic effect; HCT-8).
With `O=C(Cc1csc2nc(-c3ccc(Br)cc3)cn12)NN=C1CCCC1` the EC50 was over 100 µg/mL (Sindbis virus; viral cytopathicity, microscopy; Vero).
The EC50 of `O=C1/C(=N\NC(=S)NN=Cc2cccs2)c2ccccc2N1Cc1ccccc1` is reported as over 20 µM (Sindbis virus; viral cytopathogenicity; Vero).
With `C=Cc1cn([C@@H]2O[C@H](CO)C[C@H]2O)c2ncnc(N)c12` the EC50 was 0.04 ± 0.003 µM (Trypanosoma congolense; parasite growth, resazurin; 6C3 diminazene-resistant; 48 h plus 24 h resazurin).
The EC50 of `CCOP(=O)(CC=CC[C@@H](C)[C@@H](O)[C@H]1C(=O)N[C@@H](CC)C(=O)N(C)CC(=O)N(C)[C@@H](CC(C)C)C(=O)N[C@@H](C(C)C)C(=O)N(C)[C@@H](CC(C)C)C(=O)N[C@@H](C)C(=O)N[C@H](C)C(=O)N(C)[C@@H](CC(C)C)C(=O)N(C)[C@@H](CC(C)C)C(=O)N(C)[C@@H](C(C)C)C(=O)N1C)OCC` is reported as 1.6 µM (Human coronavirus NL63; viral replication, inhibitor, qPCR; Caco-2; 48 h).
`Nc1ncnc2c1c(Cl)cn2[C@@H]1O[C@H](CO)[C@@H](O)[C@H]1O` has an EC50 of 0.86 µM (Trypanosoma congolense; parasite growth, resazurin; 72 h).
`CC[C@@H]1NC(=O)[C@H]([C@H](O)[C@H](C)C/C=C/CN(C)C)N(C)C(=O)[C@H](C(C)C)N(C)C(=O)[C@H](CC(C)C)N(C)C(=O)[C@H](CC(C)C)N(C)C(=O)[C@@H](C)NC(=O)[C@H](C)NC(=O)[C@H](CC(C)C)N(C)C(=O)[C@H](C(C)C)NC(=O)[C@H](CC(C)C)N(C)C(=O)CN(C)C1=O` gave an EC50 of 7.9 µM (Human coronavirus NL63; viral replication, inhibitor, qPCR; Caco-2; 48 h).
For `Nc1ncnc2c1c(F)cn2[C@@H]1O[C@H](CO)[C@@H](O)[C@H]1O`, the EC50 was 0.035 ± 0.001 µM (Trypanosoma brucei brucei; parasite growth, resazurin; Squib 427; 72 h).
`COc1cccc(CNC(=O)c2cc(C3CC3)nn2C)c1OC` has an EC50 of under 1 µM (human rhinovirus; viral replication; H1-HeLa, HRV-16).
`Nc1ncnc2c1c(Br)cn2[C@@H]1O[C@H](CO)[C@@H](O)[C@H]1O` gave an EC50 of 0.79 µM (Trypanosoma congolense; parasite growth, resazurin; 72 h).
`C=C1C(=O)O[C@H]2C[C@H](C)C(/C=C/C(C)=O)=CC[C@H]12` gave an EC50 of over 20 µM (Sindbis virus; viral replication; Vero).
The EC50 of `CCCCCCC(CC=CCCCCCCCC(=O)OCCOCn1cnc2c(=O)[nH]c(N)nc21)OC(=O)CCCCC1SCC2NC(=O)NC21` (stereo not drawn) is reported as 0.27 µM (herpes simplex virus 2; viral replication, plaque reduction; HFF, MS).
With `CCCCCCCCCC(=O)OCC1OC(n2cc(C)c(=O)[nH]c2=O)CC1N(C)C` (stereo not drawn) the EC50 was over 0.23 µM (coxsackievirus B4; viral replication; Vero).
`Nc1ncnc2c1ccn2[C@H]1C[C@H](O)[C@@H](CO)O1` gave an EC50 of 11 ± 2.3 µM (Trypanosoma congolense; parasite growth, resazurin; 6C3 diminazene-resistant; 48 h plus 24 h resazurin).

Excerpt of the above:
With `CN(C(=O)c1ccn2ncc(-c3ccc(C(N)=O)cc3)c2c1)c1ccc(C#N)cn1` the EC50 was 0.107 ± 0.039 µM (Cryptosporidium parvum; cytopathic effect; HCT-8).
With `O=C(Cc1csc2nc(-c3ccc(Br)cc3)cn12)NN=C1CCCC1` the EC50 was over 100 µg/mL (Sindbis virus; viral cytopathicity, microscopy; Vero).
The EC50 of `O=C1/C(=N\NC(=S)NN=Cc2cccs2)c2ccccc2N1Cc1ccccc1` is reported as over 20 µM (Sindbis virus; viral cytopathogenicity; Vero).
